Published values from different studies.
Compare with care: the assays were run in different laboratories. “And” joins repeats or separate records; there may be more than shown. ± gives the spread as reported. Values after ≈ are worked out from the molar mass of the structure shown.

SMILES = CCCCC1(CCCC)CN(c2ccccc2)c2cc(SC)c(OCC(=O)N[C@@H](C(=O)NCC(=O)O)c3ccccc3)cc2S(=O)(=O)C1; assay = item: LDL cholesterol; system = human, serum; conditions = 15 mg once daily, day 8; endpoint = serum LDL-C; result = 77.5 mg/dL
SMILES = Cc1cn(-c2cc(NC(=O)c3ccc(C)c(Nc4nccc(-c5cccnc5)n4)c3)cc(C(F)(F)F)c2)cn1; system = human; conditions = dose not given, between 12 and 6 months, within treated group; how to read = direction not given; endpoint = ADAS-Cog score change; result = 2.37
SMILES = CSCC[C@@H]1NC(=O)[C@H](Cc2c[nH]c3ccccc23)NC(=O)[C@@H](NC(=O)CCNC(=O)[C@H](CCC(N)=O)NC(=O)[C@@H]2CCCN2C(=O)[C@@H]2CCCN2C(=O)[C@H](CCCNC(=N)N)NC(=O)[C@H](CCCNC(=N)N)NC(=O)[C@H](CCCNC(=N)N)NC(=O)[C@H](CCC(N)=O)NC(=O)[C@H](CCCNC(=N)N)NC(=O)[C@H](CCCNC(=N)N)NC(=O)[C@H](CCCCN)NC(=O)[C@H](CCCCN)NC(=O)[C@H](CCCNC(=N)N)NC(=O)CN)CSSC[C@@H](C(=O)O)NC(=O)[C@H]([C@@H](C)O)NC(=O)CNC(=O)[C@H](CC(C)C)NC(=O)[C@H](Cc2c[nH]cn2)NC(=O)[C@H](CCCNC(=N)N)NC(=O)[C@@H]2CCCN2C(=O)[C@H](CO)NC1=O; assay = immunohistochemistry, item: CSNK2A2; system = NCI-H226 xenograft mouse, tumour tissue; conditions = intravenous, 10 mg/kg, day 16; endpoint = CK2α' staining; result = 0.075 ± 0.078 IOD/area
SMILES = C[C@@H](NC(=O)c1ccc(C#Cc2cccc(F)c2)cn1)C(C)(C)O; assay = field recording; system = rat hippocampal slice CA3; conditions = 10 µM, with: MTEP 10 µM, 10 min pretreatment; how to read = baseline: baseline; endpoint = spontaneous population spike amplitude; result = 107 ± 10.8%
SMILES = CCCCC1CNC2CCc3ccc(OC)cc3C12.Cl (racemic); assay = RNA sequencing; system = SAMP8 mice, hippocampus; conditions = intracerebroventricular, 1.0 µg/µL, 24 h; how to read = baseline: vehicle; endpoint = upregulated genes count; result = 239
SMILES = [131I-].[Na+]; assay = ATA response criteria; system = human, papillary thyroid cancer, distant metastases; conditions = 3700 MBq; endpoint = structural incomplete response; result = 41.7%
SMILES = CCSc1nc2ccccc2n1Cc1nnc(-c2ccc(O)cc2)o1; assay = relaxation; system = isolated rabbit jejunum; conditions = spontaneous contractions; endpoint = EC50; result = 0.16 ± 0.05 µg/mL (≈ 0.454 µM)
SMILES = CCCCCCCCCCCCCC(=O)N[C@@H](CO)C(=O)N[C@@H](C)C(=O)N[C@H](C(=O)N[C@@H](CO)C(=O)N[C@@H](Cc1ccccc1)C(=O)N1CCC[C@H]1C(=O)N1CCC[C@H]1C(=O)N[C@@H](CO)C(=O)N[C@@H](Cc1ccc(O)cc1)C(=O)N[C@@H](CC(=O)O)C(=O)N[C@@H](CO)C(=O)N[C@H](C(=O)N[C@@H](C)C(=O)N[C@@H](CCCNC(=N)N)C(=O)NCC(=O)O)C(C)C)[C@@H](C)O; assay = action potential firing, whole-cell current clamp; system = cultured DRG neurons, rat; endpoint = IC50; result = 928 nM
SMILES = C=CC(=O)Nc1cc(Nc2ncc(Cl)c(Nc3ccccc3C(=O)C(=O)N(C)C)n2)c(OC)cc1N1CCN(C)CC1; assay = RECIST v1.1 best response; system = human EGFR T790M NSCLC; conditions = oral, 50 mg/day, per-protocol set; endpoint = patients with progressive disease; result = 33.3%
SMILES = Cc1c(C)c2c(c(C)c1O)CCC(C)(C(=O)O)O2 (stereo not shown); assay = Cu2+ reduction, CUPRAC; conditions = 30 µg/mL; endpoint = absorbance; result = 0.224 ± 0.052
SMILES = C[C@H]1O[C@@H](O[C@H]2CC[C@@]3(C)[C@@H](CC[C@]4(C)[C@@H]3C=C[C@]35OC[C@@]6(CCC(C)(C)C[C@H]63)[C@@H](O)C[C@]54C)[C@]2(C)CO)[C@H](O)[C@@H](O[C@@H]2O[C@H](CO)[C@@H](O)[C@H](O)[C@H]2O)[C@H]1O; assay = item: CPT-1α; system = chronic-plus-binge ethanol-fed mice, AAV8-TBG-Null, liver; conditions = dose not given, high dose, unit not given; how to read = baseline: AAV8-TBG-Null ethanol group; endpoint = mRNA level; result = 0.53 and 2.74 and 2.77 and 2.52 and 0.29
SMILES = CCSc1nc2ccccc2n1Cc1nnc(-c2ccccc2Cl)o1; assay = relaxation; system = isolated rabbit jejunum; conditions = spontaneous contractions; endpoint = EC50; result = 0.16 ± 0.21 µg/mL (≈ 0.431 µM)
SMILES = Cc1nc(Nc2ccc(CC(=O)O)cc2)nc(Nc2ccc(F)c(C(F)(F)F)c2)c1C; system = mice, chronic ethanol plus binge, liver; conditions = intraperitoneal, 0.3 mg/kg daily, ethanol diet 4 weeks, dosed last two; how to read = baseline: vehicle; endpoint = TUNEL-positive cells; result = decreased
SMILES = CN1CCN(S(=O)(=O)c2cc([N+](=O)[O-])ccc2N(CCOS(C)(=O)=O)CCOS(C)(=O)=O)CC1; system = NSG mice, sample BD PDX; conditions = intraperitoneal, 25 mg/kg weekly x3; how to read = baseline: treated over vehicle; endpoint = EFS ratio (T/C); result = 1.5
SMILES = CCSc1nc2ccccc2n1Cc1nnc(-c2ccc(OC)c(OC)c2)o1; assay = relaxation, calcium antagonist; system = isolated rabbit jejunum; conditions = with: 80 mM K+ contraction; endpoint = EC50; result = 0.34 ± 0.05 µg/mL (≈ 0.858 µM)
SMILES = CNC(=O)c1c(C)oc2cc(Oc3ccnc4cc(OCCN5CCOCC5)ccc34)ccc12; assay = item: soluble VEGFR-3; system = patients, plasma; conditions = 6 mg twice daily, cycle 2 day 1; endpoint = decrease; result = 38%
SMILES = CC(C)(C)CC(C)(C)c1ccc(OCCOCC[N+](C)(C)Cc2ccccc2)cc1; assay = fEPSP; system = male C57BL/6J mouse, hippocampal slices, Schaffer collateral-CA1; conditions = 0.3 to 10000 nM, interpulse interval 50 ms; endpoint = paired-pulse facilitation; result = no effect
SMILES = C[C@]1(CO)Cc2ncn(-c3ccc(C#N)c(Cl)c3)c2C(=O)O1; assay = aldosterone synthesis, inhibitor, item: cortisol; system = healthy Japanese adults, urine; conditions = 40 mg, 0-24 h at steady state, multiple rising dose; endpoint = urinary excretion; result = 65.6 mmol
SMILES = CC[C@H](C)[C@@H]1NC(=O)[C@@H]2CCCN2C(=O)[C@H](CC(C)C)NC(=O)[C@H](CC(C)C)NC(=O)CNC(=O)[C@@H](NC(=O)[C@@H](NC(=O)[C@H](CC(=O)O)NC(=O)CNC(=O)[C@@H](NC(=O)[C@H](C)NC(=O)CNC(=O)[C@H](CCCCN)NC(=O)[C@H](CC(C)C)NC(=O)[C@H](CC(C)C)NC(=O)[C@H](CCCCN)NC(=O)CNC(=O)[C@@H](NC(=O)[C@@H](N)CC(C)C)C(C)C)C(C)C)C(C)C)CSSC[C@@H](C(=O)O)NC1=O; assay = RNA-seq, item: Irgc1; system = mouse, traumatic brain injury model, frontal cortex and hippocampus; conditions = dose not given; how to read = baseline: TBI alone; endpoint = log2 fold change; result = -4.65
SMILES = C=CCNc1c(O)cc2c(O)c1C[C@@H](C)C[C@H](OC)[C@H](O)[C@@H](C)/C=C(\C)[C@H](OC(N)=O)[C@@H](OC)/C=C\C=C(/C)C(=O)N2; assay = 18F-FDG PET EORTC criteria; system = human GIST; conditions = dose not given; endpoint = metabolic partial response rate; result = 38%
SMILES = CCSc1nc2ccccc2n1Cc1nnc(-c2ccc(F)cc2)o1; assay = relaxation, calcium antagonist; system = isolated rabbit jejunum; conditions = with: 80 mM K+ contraction; endpoint = EC50; result = 0.88 ± 0.03 µg/mL (≈ 2.48 µM)
SMILES = CC(C)C1CCC(N2CCC(N3C(=O)/C(=N\O)c4ccccc43)CC2)CC1 (stereo not shown); system = conscious Sprague-Dawley rat; conditions = intravenous bolus, 100 nmol/kg; endpoint = mean arterial pressure change; result = decreased
